{"data": "Assay results gathered from unrelated publications", "note": "A part holds a random share of what one study measured."}
{"data": "Sample 1", "target": "Ras GTPase-activating protein-binding protein 1, full length (G3BP1, Homo sapiens, UniProt Q13283)", "method": "RNA Bind-n-Seq", "form": "RNA", "sample": "in vitro", "tested at": "200 nM", "notes": "whole 134-nt RNA, ends assumed", "with": "150 mM LiCl", "baseline": "input library", "direction": "higher = stronger binding", "library": "7-deaza-guanosine replaces G", "chain of UniProt Q13283 (whole entry, looked up)": "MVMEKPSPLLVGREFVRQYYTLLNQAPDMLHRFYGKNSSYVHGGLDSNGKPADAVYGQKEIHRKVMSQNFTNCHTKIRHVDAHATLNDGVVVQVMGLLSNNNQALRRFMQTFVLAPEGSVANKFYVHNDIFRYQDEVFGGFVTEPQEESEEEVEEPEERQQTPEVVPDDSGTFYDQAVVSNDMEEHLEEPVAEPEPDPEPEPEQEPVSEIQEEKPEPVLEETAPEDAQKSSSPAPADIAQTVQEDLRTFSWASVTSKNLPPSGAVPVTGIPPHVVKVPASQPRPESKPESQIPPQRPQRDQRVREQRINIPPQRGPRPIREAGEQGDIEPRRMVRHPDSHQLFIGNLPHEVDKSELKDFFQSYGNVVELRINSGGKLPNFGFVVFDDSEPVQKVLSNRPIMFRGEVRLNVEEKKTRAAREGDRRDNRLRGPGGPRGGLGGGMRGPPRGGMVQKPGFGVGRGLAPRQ"}
{"Oligonucleotide": "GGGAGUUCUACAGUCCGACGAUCCAAGUCCUGUGCUACACAUCGUAUGUACCGAAUCGGAAAGGGAAAGGGGAAAGGGGAAAGUAUUAUGUUACGCCGUUCGGAUCUGCACUUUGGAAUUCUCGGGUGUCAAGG", "log2 enrichment": -0.0992}
{"Oligonucleotide": "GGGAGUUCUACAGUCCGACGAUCUGCCUCCCUGCUGCAGAAAUACACCGACAACAGCGAGAAGCCAUCCGGGAAGAGACUGUGCAAAACCAAACACUUGAUCCCUCAGGAGUCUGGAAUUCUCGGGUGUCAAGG", "log2 enrichment": -1.18}
{"Oligonucleotide": "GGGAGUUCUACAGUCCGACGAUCCUCAAGUCCUGUGCUACACAUCGUAUGUACCGAAUCGGAAAGGAAAGGAAAGGAAAGUAUUAUGUUACGCCGUUCGGAUCUGCACUUCCAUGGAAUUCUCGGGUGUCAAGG", "log2 enrichment": -0.106}
{"Oligonucleotide": "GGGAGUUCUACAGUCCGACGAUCCAAGUCCUGUGCUACACAUCGUAUGUACCGAAUCGGAAAGGGGAAAGGGGAAAGGGAAAGUAUUAUGUUACGCCGUUCGGAUCUGCACUUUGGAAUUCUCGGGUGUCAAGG", "log2 enrichment": -0.332}
{"Oligonucleotide": "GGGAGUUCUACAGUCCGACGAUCUGGGAGGUGGAUUUUGUUUAUUUUUUUAGCUCAUUUCCAGGGGUGGGAAUUUUUUUUUAAUAUGUGUCAUGAAUAAAGUUGUUUAUGAAAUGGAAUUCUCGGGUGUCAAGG", "log2 enrichment": -0.456}
{"Oligonucleotide": "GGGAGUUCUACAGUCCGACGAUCAAGUCCUGUGCUACACAUCGUAUGUACCGAAUCGGGGUGGGGUUUUUGGGGAGGGGAAAGUAUUAUGUUACGCCGUUCGGAUCUGCACUUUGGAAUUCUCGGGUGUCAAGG", "log2 enrichment": 0.448}
{"Oligonucleotide": "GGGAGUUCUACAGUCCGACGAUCUUCAACAACUAGUACUGCUUCAAAUUAUCCAGAUGUGUUAACAAGGCCUUCUCUUCAUCGGAGCCAUCUGAAUUUUUCCAUGUUGGAAUCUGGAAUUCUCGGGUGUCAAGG", "log2 enrichment": 1.2}
{"Oligonucleotide": "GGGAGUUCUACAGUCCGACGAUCCACAGAUAACACGCACCCACACAGACACAGAGGGAAGGGGUUGGGAUGGGGACAGGGUGCACAGCAGGGCGGGGUAGGACCCCAGCCCCUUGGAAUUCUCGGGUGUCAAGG", "log2 enrichment": 0.328}
{"Oligonucleotide": "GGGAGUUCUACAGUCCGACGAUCACCAUGCAGGUGGGCAUCAAAGGGAAGUGGGGCAAGGGGGGGAUAGGGAGGGGGGUAACACUUUGGGAACAGGUGGUCCCAGGUCGUUUCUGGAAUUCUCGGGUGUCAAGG", "log2 enrichment": 0.123}
{"Oligonucleotide": "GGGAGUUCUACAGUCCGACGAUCCCUCAAGUCCUGUGCUACACAUCGUAUGUACCGAAUCGGGGAGGGAGGAGGGAAAGUAUUAUGUUACGCCGUUCGGAUCUGCACUUCCAGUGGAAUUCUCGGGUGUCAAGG", "log2 enrichment": 0.532}
{"Oligonucleotide": "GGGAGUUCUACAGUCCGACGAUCCUGUGCUACACAUCGUAUGUACCGAAUCGGGGAAAAAAAGGGGAAAAAGGGGUUUUUGGGGAAAGUAUUAUGUUACGCCGUUCGGAUCUGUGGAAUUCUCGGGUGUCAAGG", "log2 enrichment": -0.158}
{"data": "Sample 2", "target": "RNA binding protein fox-1 homolog 2, RRM domain, GST-SBP tag (RBFOX2, Homo sapiens, UniProt O43251-10, residues 100-194)", "method": "RNA Bind-n-Seq", "form": "RNA", "sample": "in vitro", "tested at": "365 nM", "notes": "natural RNA segment, single round, ends assumed", "baseline": "no-protein control", "direction": "higher = stronger binding", "Residues (chain)": "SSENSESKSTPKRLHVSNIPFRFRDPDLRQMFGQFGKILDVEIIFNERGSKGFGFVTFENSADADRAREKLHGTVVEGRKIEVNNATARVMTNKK"}
{"Oligonucleotide": "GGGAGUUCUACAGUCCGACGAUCCUGCCUCCUGUCCUUGUCGCUGUGCCCUGGUUUCCCUCCUCGGGCUUCUCGCCCCUCAGUGGUUUCCUCGGCCCUCCUGGGUUUACUCCUUGAGUUUUCCUGCUGCGAUGUGGAAUUCUCGGGUGCCAA", "RBNS enrichment (R)": 0.305}
{"Oligonucleotide": "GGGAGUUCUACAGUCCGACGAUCACACCAGAAAAAAGAGCCUGAGAGUGGUCGCUUCCAUCUUCCACUCCCCUUGUUCUUGGGGGGAAAGGAAGGAGACUUCUGCUGUUGCAGUGAGCCCAGAGUGGAUUGGCUGGAAUUCUCGGGUGCCAA", "RBNS enrichment (R)": 0.245}
{"Oligonucleotide": "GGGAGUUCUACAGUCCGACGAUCUCCAUUCCACCUGACCCUGUGUGUACAAUCCAGGAAAAAAACAAACCCCACUCAGAAACAGAGAAAACUGGGGUCGCGAAGAAAUCACAGCCAAGGAAGAUUUGAUGCAUUGGAAUUCUCGGGUGCCAA", "RBNS enrichment (R)": 0.419}
{"Oligonucleotide": "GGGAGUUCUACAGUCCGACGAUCUGAUGACUUUGUUCUCCCUCCCACUGGGGGAAUCCUCCCUAUGCCUUAAAACUGCCGAGCCCCACUCCAUGUAAUAGGAUUCCUGGGCUUCCUCAAUGGGGGUUCAUGUUUGGAAUUCUCGGGUGCCAA", "RBNS enrichment (R)": 0.526}
{"Oligonucleotide": "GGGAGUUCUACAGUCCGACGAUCGCUUUAUCAGUAGCCCAGGAUAUAUUUUAUUUUUAGAAUUUUGUGAGCCAGACUUGUAUAUUCUAUUUUACAACUACAAAGGCCUCCUAAGUAUUGUACCUUCAGCGUGCUGGAAUUCUCGGGUGCCAA", "RBNS enrichment (R)": 0.303}
{"Oligonucleotide": "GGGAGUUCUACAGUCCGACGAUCUGGGGAUAAUCUAUAUUAUAUUGACUUCCUAUUACUUAUUAUAAACCUGUGUUUGUAUUGGAGAUGUGUCUACUAUUGGGGGAAGAGGUUCUCGUAAUCGCUCGGUGGGAUGGAAUUCUCGGGUGCCAA", "RBNS enrichment (R)": 0.669}
{"Oligonucleotide": "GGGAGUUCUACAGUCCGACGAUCUAAUAUUCAUUUAAUUUGUGCAUGACUUGUGGCCUUUUUGUAUUUUCUCAAGCCUAUUACUCUAGAGCUGUAAAAGCUCUUGCACAGCAUUGUUGUGUCAGUGUAGAAUAUGGAAUUCUCGGGUGCCAA", "RBNS enrichment (R)": 1.19}
{"Oligonucleotide": "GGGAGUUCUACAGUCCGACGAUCGGGAAUCCUAGAGGGGAUGGAAGACGCGGGGAGUGAGCUGGGUGGGCCCUGCUAGCGAGAGAGGUCAACCCCGGUGGCCAGGGAACCCACUUCCAAGCGCAGGGACGCCGUGGAAUUCUCGGGUGCCAA", "RBNS enrichment (R)": 0.821}
{"Oligonucleotide": "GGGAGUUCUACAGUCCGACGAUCCUUUACAAGCUGACUUGGAAUUGUGUGCUGCUUGCUGUUAGCUAGGGGAAAGGCCCUGCCAAUGUUUAACUUUUAAAAGCAUCUUAUCUAAAAGAAAGGCUAUCCAGUAGUGGAAUUCUCGGGUGCCAA", "RBNS enrichment (R)": 1.99}
{"Oligonucleotide": "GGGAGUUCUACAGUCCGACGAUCUUACUUGUGAAAAUGGCCAUCUUUAAGCAUAUUUAUUUUCUGCCACUUUAUUUAAAGGCAAGCAAUAUUUUCUUGAUCAUAAAUAUUUUGUAAUGAAAUACUUCCUCUUUUGGAAUUCUCGGGUGCCAA", "RBNS enrichment (R)": 0.425}
{"Oligonucleotide": "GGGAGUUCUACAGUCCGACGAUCGUAAAUUAUUGUAAACUUUUUCAAUGGUUGGGACAAUGGCAAUAGGAUAAAACGGGUUACUAAGAUGAAAUUGCCAAAAAAAAAAAAAAAUUUGUAACUAAUUUUGUACGUGGAAUUCUCGGGUGCCAA", "RBNS enrichment (R)": 0.794}
{"Oligonucleotide": "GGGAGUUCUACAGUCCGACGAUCUUCAUAUUUUGUGAUAUAUAAGUAGUGAACACACAUGUUAUUUACUUCAAAAGACAGGAUUGACAAAUUCAGUCAAUACUAUUUUAGAGAUUCUGUUAGAUGAUAUGUCUUGGAAUUCUCGGGUGCCAA", "RBNS enrichment (R)": 0.359}
{"data": "Sample 3", "target": "Interferon regulatory factor 5, full length, phosphomimetic (IRF5, Homo sapiens, UniProt Q13568-2, residues 1-514, K96S/S451D/S453D/S456D/S462D)", "method": "protein-binding microarray", "form": "double-stranded DNA, one strand shown", "sample": "in vitro", "tested at": "250 nM", "notes": "60-bp whole probe", "with": "salmon DNA 0.4 mg/ml", "baseline": "random background probes", "direction": "higher = stronger binding", "shared flanks, not repeated": "GCCTAGCAC … GTCTTGATTCGCTTGACGCTGCTG"}
{"Oligonucleotide": "TCAGATTTCGGGACTGGATTAGTGCTA", "log fluorescence": "1.96 z-score"}
{"Oligonucleotide": "CACGATTTCGGGTATCGAGACGTGCTA", "log fluorescence": "4.32 z-score"}
{"Oligonucleotide": "GACGGACTGGTACTGCTGACGTGCTAG", "log fluorescence": "-0.598 z-score"}
{"Oligonucleotide": "TTAGGTTTCTTTATCCTTTAGTGCTAG", "log fluorescence": "1.57 z-score"}
{"Oligonucleotide": "TTCGGTATCGACACTGGGTTAGTGCTA", "log fluorescence": "3.69 z-score"}
{"Oligonucleotide": "GTCGGACTGCTTATCCTGACGTGCTAG", "log fluorescence": "-0.331 z-score"}
{"Oligonucleotide": "TTAGCACTGGACTTTCGGTTAGTGCTA", "log fluorescence": "9.63 z-score"}
{"Oligonucleotide": "GACGGACTGCACACTGGGGACGTGCTA", "log fluorescence": "-0.541 z-score"}
{"Oligonucleotide": "GACGATATCAGATTCGAGACGTGCTAG", "log fluorescence": "0.777 z-score"}
{"Oligonucleotide": "GACGCACTGGACTATCGGGACGTGCTA", "log fluorescence": "0.717 z-score"}
{"Oligonucleotide": "GCTCATTTTTTTTGCAAGCTGTGCTAG", "log fluorescence": "0.343 z-score"}
{"Oligonucleotide": "TTAGGTATCGCCACTGGGTTAGTGCTA", "log fluorescence": "0.865 z-score"}
{"Oligonucleotide": "TTACATTTCGGGACTGGATTAGTGCTA", "log fluorescence": "2.9 z-score"}
{"Oligonucleotide": "CTATATTTGCTTCAGGTTTAGTGCTAG", "log fluorescence": "0.587 z-score"}
{"Oligonucleotide": "TATGGTATTTTTTTCTAATTGTGCTAG", "log fluorescence": "0.861 z-score"}
{"Oligonucleotide": "GACGGTATCGGGTTTCGGTACGTGCTA", "log fluorescence": "7.47 z-score"}
{"Oligonucleotide": "TTAGAAATTTCTTTCTAATTGTGCTAG", "log fluorescence": "1.56 z-score"}
{"Oligonucleotide": "GCCGGTATCGGGTTTCGGGACGTGCTA", "log fluorescence": "4.74 z-score"}
{"Oligonucleotide": "TTAGATCTCAGAATGGATTAGTGCTAG", "log fluorescence": "-0.19 z-score"}
{"Oligonucleotide": "GGCAATTTGAGTCACTGTGTGTGCTAG", "log fluorescence": "-0.455 z-score"}
{"Oligonucleotide": "TTAGGACTGGGGTTACGGTTAGTGCTA", "log fluorescence": "-0.351 z-score"}
{"Oligonucleotide": "GAAGATCTCAGTATCGAGACGTGCTAG", "log fluorescence": "1.97 z-score"}
{"Oligonucleotide": "TTTACTTTCTGAATGCCCTTGTGCTAG", "log fluorescence": "5.4 z-score"}
{"Oligonucleotide": "TTAGGTCTCGGTTTTGGTTAGTGCTAG", "log fluorescence": "1.7 z-score"}
{"Oligonucleotide": "TTAGGTTCCGGTTTCGATTAGTGCTAG", "log fluorescence": "8.69 z-score"}
{"data": "Sample 4", "organism": "Saccharomyces cerevisiae", "effect on": "binding", "method": "competitive growth deep sequencing", "form": "peptide", "strain": "cyclin E1-Cln2 fusion strain", "notes": "peptide tiling library", "direction": "direction not given"}
{"Molecule": "EPRNLLSLFEDTLDPT", "enrichment score": 1.1}
{"Molecule": "VLPGGVPSPGASLTSM", "enrichment score": 0.223}
{"Molecule": "GTPKRCLDLSNLSSGE", "enrichment score": -0.219}
{"Molecule": "NESHLDKEHDAVEVAD", "enrichment score": 1.14}
{"Molecule": "KRCATPVIIDEILPSK", "enrichment score": 1.17}
{"Molecule": "AEHPKPSACRNLFGPV", "enrichment score": 2.1}
{"Molecule": "DKYDEGLYRFNSLNDL", "enrichment score": 0.668}
{"Molecule": "NSMKELNFSHLPSNSV", "enrichment score": 0.349}
{"Molecule": "NEGVSNAVRRSLYIRD", "enrichment score": -0.639}
{"Molecule": "SNFFDVIKQLFSDEKN", "enrichment score": 0.94}
{"Molecule": "ATNSSHTDAHEILVSD", "enrichment score": 0.586}
{"Molecule": "AKRSLGFLPQPVPL", "enrichment score": -1.05}
{"Molecule": "ASVLSKPIFCFVKD", "enrichment score": 0.768}
{"Molecule": "SPPRGRRLFPPGPAGF", "enrichment score": 0.202}
